Measured values pooled from the literature.
Numbered parts are unrelated; each lists some results of a single study.

Set 1
Target: RNA binding protein fox-1 homolog 2, RRM domain, GST-SBP tag (RBFOX2, Homo sapiens, UniProt O43251-10, residues 100-194)
Technique: RNA Bind-n-Seq
Molecule type: RNA
Sample: in vitro
Tested at: 365 nM
Setting: natural RNA segment, single round, ends assumed
Reference: no-protein control
Reading: higher = stronger binding
Shared flanks, not repeated: GGGAGUUCUACAGUCCGACGAUC … UGGAAUUCUCGGGUGCCAA
Target sequence (chain): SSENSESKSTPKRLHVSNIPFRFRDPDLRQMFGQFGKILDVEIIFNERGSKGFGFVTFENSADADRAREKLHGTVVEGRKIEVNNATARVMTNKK
| Oligonucleotide | RBNS enrichment (R) |
| --- | --- |
| UGGACAGGAUUGAAAUCUCACAUGGGUGGAAAGGGAAUAAUAACCAUAAACCUUAAUCUGGAGAAGAAGUUUUGAUGCUGGAAGUGAGCAUCAGCUAUUGAGAUAGGCCU | 0.41 |
| GGGCCGGAGGUCUCGAAGCCUCAGCUUUUACUUUGUGAGCUGCAACACUCGCUUCAGCUCAGACUCAGUGGACAUCAGAGUCUCUGUCUCCGUGUCUCAGUUAUGGUCUG | 0.214 |
| UGCUGUCCUGGUGGCUGGGCCCAGCAGGGGCCCUCACUCUUGAAGUCCAGGACUGGGUCUGACCUGGUGGGAGCACCUGCCAGAGGAUGCUCUUUCCCAGGACGGAUGGG | 0.344 |
| AGGAUGAAAUAAACCUAGAAGUGGCAGAACACUGGAUUUGUGUGUGUGGCGCUUUAGGGUGCUGGACUGUAUGGCUGAGGGCUGGUUGGGUUCCUCUAUUGGCUCUGCUC | 0.714 |
| GCCUUCCCUGUCAGAAGGGGGUUGUGGCAAAAGCCACAUUACAAGCUGCCAUCCCCUCCCCGUUUCAGUGGACCCUGUGGCCAGGUGCUUUUCCCUAUCCACAGGGGUGU | 0.203 |

Set 2
Target: Ras GTPase-activating protein-binding protein 1, RRM domain (G3BP1, Homo sapiens, UniProt Q13283)
UniProt Q13283, sequence (whole entry, looked up): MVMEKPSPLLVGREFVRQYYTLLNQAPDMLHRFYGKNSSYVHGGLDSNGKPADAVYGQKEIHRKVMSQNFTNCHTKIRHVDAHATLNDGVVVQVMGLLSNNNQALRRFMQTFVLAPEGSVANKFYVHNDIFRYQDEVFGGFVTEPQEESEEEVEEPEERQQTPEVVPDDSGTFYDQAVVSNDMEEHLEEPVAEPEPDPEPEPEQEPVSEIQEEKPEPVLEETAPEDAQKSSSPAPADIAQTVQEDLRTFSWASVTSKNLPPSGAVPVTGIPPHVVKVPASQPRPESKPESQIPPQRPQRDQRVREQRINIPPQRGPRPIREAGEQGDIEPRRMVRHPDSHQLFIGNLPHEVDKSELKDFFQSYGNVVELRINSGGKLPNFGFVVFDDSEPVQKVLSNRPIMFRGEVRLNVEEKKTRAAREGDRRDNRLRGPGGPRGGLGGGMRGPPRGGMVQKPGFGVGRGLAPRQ
Technique: RNA Bind-n-Seq
Molecule type: RNA
Sample: in vitro
Tested at: 1 µM
Setting: whole 134-nt RNA, ends assumed
With: 150 mM KCl
Reference: input library
Reading: higher = stronger binding
| Oligonucleotide | log2 enrichment |
| --- | --- |
| GGGAGUUCUACAGUCCGACGAUCCAAGUCCUGUGCUACACAUCGUAUGUACCGAAUCGGGCCCGGGCCCGGGGCCCGGAAAGUAUUAUGUUACGCCGUUCGGAUCUGCACUUCUGGAAUUCUCGGGUGUCAAGG | -0.842 |
| GGGAGUUCUACAGUCCGACGAUCUGUGCUACACAUCGUAUGUACCGAAUCGGGGAAAAAAAGGGGAAAAAGGGGUUUUUUUGGGGAAAGUAUUAUGUUACGCCGUUCGGAUCUUGGAAUUCUCGGGUGUCAAGG | 1.3 |
| GGGAGUUCUACAGUCCGACGAUCACCAUGCAGUUGGGCAUCUUUGGGAAGUGGGGCAAGGGGGGGAUAGGGAGGGGGGUAACACUUUGGGAACAGGUGGUCCCAGGUCGUUUCUGGAAUUCUCGGGUGUCAAGG | -0.543 |
| GGGAGUUCUACAGUCCGACGAUCAGUCCUGUGCUACACAUCGUAUGUACCGAAUCAAACCCAAACCCCCAAAUUUUUAAAAAAGUAUUAUGUUACGCCGUUCGGAUCUGCACUUGGAAUUCUCGGGUGUCAAGG | -0.0997 |

Other studies, line by line
UNK zinc fingers 1-6, GST-SBP tag: RING finger protein unkempt homolog, zinc fingers 1-6, GST-SBP tag (UNK, Homo sapiens, UniProt Q9C0B0, residues 30-357)
UniProt Q9C0B0, sequence (30-357, looked up): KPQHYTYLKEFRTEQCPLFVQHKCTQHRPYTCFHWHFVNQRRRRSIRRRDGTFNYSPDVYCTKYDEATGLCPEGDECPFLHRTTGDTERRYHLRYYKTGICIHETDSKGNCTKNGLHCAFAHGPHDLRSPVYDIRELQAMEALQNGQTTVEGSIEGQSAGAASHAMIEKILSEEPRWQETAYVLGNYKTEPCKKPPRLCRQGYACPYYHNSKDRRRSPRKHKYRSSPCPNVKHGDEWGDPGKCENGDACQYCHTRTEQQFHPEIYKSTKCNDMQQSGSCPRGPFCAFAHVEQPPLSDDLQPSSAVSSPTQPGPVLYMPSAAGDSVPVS
| Molecule | target | assay | system | conditions | scale | measurement | value |
| --- | --- | --- | --- | --- | --- | --- | --- |
| GGGAGUUCUACAGUCCGACGAUCGAUAAGAAAAACUUGUUGGAGACCCGCUUGCAUGUCACUGGUAGAGACCUGAGGUGUCAAAUAGCUGAAACUUUCGGAUUUCAAGAAAAUUAUAUCAAGAUCGUAAUAAAUAAGAAACAGCAACAGAGGAUUGAGCAUCA | UNK zinc fingers 1-6, GST-SBP tag | RNA Bind-n-Seq | RNA, in vitro | not given, RNA with constant flanks, human-mouse chimeric sites, ends assumed | reference: input RNA pool, higher = stronger binding | bound/input enrichment | 0.489 ratio |
| PhoQ, residues 284 288 289 292 302 303 WVSSAF | PhoP, residues 12 14 15 18 19 DLLYY (Escherichia coli, UniProt P23836) | Sort-seq, measured: YFP reporter | E. coli | PhoQ-PhoP variant library, with: 10 µM Mg2+ | reference: high Mg2+ state, higher = stronger signaling | fold induction | 1.23 |
| GGGAGUUCUACAGUCCGACGAUCCAUGUCCUUGUUACUGUGAUAUUUAAAAUAUCCACAGUAUUCACCUUUUCCAAAUGAUUCUAGUAAUAUCUUUCUCUUAUCUGUUAUUUAUCAAUUUUUCCCAGUAUUUUUAUAUGGAAACAACAGAGGAUUGAGCAUCA | RING finger protein unkempt homolog, zinc fingers 1-6, SBP tag (UNK, Homo sapiens, UniProt Q9C0B0, residues 30-357) | RNA Bind-n-Seq | RNA, in vitro | 100 nM, RNA with constant flanks, vertebrate orthologous sites, ends assumed | reference: input RNA pool, higher = stronger binding | bound/input enrichment | 1.58 ratio |
| GGGAGUUCUACAGUCCGACGAUCAAACAUCUGUCUUUAAGCAUUCCAAGCGAGAAUGCUGGGGUGAUCAUUGUUGCCCAUGUGCCUUCUGACUGAGCUUUAAUGCUGUUCAUCCUUGAUGCUUUCCUUCACUCCAGAAUUGUUCAACAGAGGAUUGAGCAUCA | UNK zinc fingers 1-6, GST-SBP tag | RNA Bind-n-Seq | RNA, in vitro | not given, RNA with constant flanks, human-mouse chimeric sites, ends assumed | reference: input RNA pool, higher = stronger binding | bound/input enrichment | 0.167 ratio |

A few entries again (other studies, line by line):
| Molecule | target | assay | system | conditions | scale | measurement | value |
| --- | --- | --- | --- | --- | --- | --- | --- |
| PhoQ, residues 284 288 289 292 302 303 WVSSAF | PhoP, residues 12 14 15 18 19 DLLYY (Escherichia coli, UniProt P23836) | Sort-seq, measured: YFP reporter | E. coli | PhoQ-PhoP variant library, with: 10 µM Mg2+ | reference: high Mg2+ state, higher = stronger signaling | fold induction | 1.23 |
| GGGAGUUCUACAGUCCGACGAUCCAUGUCCUUGUUACUGUGAUAUUUAAAAUAUCCACAGUAUUCACCUUUUCCAAAUGAUUCUAGUAAUAUCUUUCUCUUAUCUGUUAUUUAUCAAUUUUUCCCAGUAUUUUUAUAUGGAAACAACAGAGGAUUGAGCAUCA | RING finger protein unkempt homolog, zinc fingers 1-6, SBP tag (UNK, Homo sapiens, UniProt Q9C0B0, residues 30-357) | RNA Bind-n-Seq | RNA, in vitro | 100 nM, RNA with constant flanks, vertebrate orthologous sites, ends assumed | reference: input RNA pool, higher = stronger binding | bound/input enrichment | 1.58 ratio |
